Assay results gathered from unrelated publications.
Parts stem from different laboratories: compare values within a part only. “And” joins repeats or separate records; there may be more than shown.
Chain of UniProt P00519 (whole entry, looked up): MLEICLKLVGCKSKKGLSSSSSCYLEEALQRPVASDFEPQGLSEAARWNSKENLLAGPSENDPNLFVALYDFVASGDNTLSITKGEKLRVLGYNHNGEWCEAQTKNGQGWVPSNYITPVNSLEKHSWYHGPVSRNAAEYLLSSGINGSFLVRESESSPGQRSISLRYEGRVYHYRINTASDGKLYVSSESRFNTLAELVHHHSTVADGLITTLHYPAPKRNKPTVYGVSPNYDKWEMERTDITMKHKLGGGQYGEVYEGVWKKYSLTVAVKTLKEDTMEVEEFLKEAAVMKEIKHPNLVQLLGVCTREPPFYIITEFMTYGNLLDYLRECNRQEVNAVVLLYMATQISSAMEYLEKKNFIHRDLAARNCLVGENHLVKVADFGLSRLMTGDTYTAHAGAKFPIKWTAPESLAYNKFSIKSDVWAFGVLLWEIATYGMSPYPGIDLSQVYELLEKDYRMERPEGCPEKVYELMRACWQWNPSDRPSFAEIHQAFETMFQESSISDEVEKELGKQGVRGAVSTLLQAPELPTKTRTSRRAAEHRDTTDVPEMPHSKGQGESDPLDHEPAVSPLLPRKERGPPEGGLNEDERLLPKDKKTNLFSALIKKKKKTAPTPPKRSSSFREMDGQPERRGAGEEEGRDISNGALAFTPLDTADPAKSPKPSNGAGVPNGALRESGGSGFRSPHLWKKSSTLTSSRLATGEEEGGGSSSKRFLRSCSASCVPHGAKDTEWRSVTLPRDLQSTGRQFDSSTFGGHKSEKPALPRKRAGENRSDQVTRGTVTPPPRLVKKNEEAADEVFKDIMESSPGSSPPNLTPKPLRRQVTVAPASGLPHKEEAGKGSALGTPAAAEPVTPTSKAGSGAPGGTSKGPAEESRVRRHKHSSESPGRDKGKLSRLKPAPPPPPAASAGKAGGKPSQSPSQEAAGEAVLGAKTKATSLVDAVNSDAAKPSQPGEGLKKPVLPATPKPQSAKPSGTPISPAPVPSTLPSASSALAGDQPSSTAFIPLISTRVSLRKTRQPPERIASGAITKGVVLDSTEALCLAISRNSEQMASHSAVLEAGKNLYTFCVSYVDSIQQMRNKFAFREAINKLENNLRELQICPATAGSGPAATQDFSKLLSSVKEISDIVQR
Chain of UniProt Q13188 (whole entry, looked up): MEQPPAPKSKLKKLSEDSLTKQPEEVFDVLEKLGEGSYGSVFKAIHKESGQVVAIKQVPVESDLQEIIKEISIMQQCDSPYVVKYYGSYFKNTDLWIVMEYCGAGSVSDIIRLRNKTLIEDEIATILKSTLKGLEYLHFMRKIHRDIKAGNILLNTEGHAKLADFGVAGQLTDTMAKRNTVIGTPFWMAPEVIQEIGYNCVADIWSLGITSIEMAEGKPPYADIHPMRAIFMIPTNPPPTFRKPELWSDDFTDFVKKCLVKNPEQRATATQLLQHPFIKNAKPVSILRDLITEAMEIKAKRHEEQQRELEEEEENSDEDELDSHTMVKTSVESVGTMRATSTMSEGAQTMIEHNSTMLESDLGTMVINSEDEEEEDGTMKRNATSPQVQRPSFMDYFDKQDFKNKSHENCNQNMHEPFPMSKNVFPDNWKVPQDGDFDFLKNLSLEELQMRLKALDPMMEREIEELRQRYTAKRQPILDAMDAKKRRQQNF
Chain of UniProt Q07912 (whole entry, looked up): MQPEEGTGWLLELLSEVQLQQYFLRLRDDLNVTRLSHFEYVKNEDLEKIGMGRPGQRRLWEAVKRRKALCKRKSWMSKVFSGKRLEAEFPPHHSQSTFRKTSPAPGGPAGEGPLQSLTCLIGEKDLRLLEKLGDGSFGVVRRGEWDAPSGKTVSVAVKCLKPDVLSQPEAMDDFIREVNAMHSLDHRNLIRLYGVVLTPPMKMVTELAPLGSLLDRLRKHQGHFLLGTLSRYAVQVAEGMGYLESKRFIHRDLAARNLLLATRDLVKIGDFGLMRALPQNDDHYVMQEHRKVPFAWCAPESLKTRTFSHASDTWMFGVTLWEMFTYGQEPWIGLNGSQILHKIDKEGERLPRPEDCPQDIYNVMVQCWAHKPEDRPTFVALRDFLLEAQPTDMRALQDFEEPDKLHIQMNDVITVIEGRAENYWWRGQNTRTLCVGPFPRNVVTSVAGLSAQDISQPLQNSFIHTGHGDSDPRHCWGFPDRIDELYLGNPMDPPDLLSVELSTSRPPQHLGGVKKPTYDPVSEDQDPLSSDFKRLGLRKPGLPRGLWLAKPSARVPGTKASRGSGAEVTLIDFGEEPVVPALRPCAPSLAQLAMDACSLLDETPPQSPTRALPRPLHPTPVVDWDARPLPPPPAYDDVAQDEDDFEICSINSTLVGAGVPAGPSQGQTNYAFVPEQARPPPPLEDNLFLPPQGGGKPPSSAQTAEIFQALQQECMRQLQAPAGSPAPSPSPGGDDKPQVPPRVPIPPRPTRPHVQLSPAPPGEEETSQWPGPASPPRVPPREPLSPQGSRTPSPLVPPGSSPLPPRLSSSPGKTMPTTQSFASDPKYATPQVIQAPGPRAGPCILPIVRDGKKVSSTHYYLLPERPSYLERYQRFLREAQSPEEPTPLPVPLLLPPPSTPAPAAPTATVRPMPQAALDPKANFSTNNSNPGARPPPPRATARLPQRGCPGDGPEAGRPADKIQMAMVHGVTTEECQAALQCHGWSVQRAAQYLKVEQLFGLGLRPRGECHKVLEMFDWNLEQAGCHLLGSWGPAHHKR
Chain of UniProt O00750 (whole entry, looked up): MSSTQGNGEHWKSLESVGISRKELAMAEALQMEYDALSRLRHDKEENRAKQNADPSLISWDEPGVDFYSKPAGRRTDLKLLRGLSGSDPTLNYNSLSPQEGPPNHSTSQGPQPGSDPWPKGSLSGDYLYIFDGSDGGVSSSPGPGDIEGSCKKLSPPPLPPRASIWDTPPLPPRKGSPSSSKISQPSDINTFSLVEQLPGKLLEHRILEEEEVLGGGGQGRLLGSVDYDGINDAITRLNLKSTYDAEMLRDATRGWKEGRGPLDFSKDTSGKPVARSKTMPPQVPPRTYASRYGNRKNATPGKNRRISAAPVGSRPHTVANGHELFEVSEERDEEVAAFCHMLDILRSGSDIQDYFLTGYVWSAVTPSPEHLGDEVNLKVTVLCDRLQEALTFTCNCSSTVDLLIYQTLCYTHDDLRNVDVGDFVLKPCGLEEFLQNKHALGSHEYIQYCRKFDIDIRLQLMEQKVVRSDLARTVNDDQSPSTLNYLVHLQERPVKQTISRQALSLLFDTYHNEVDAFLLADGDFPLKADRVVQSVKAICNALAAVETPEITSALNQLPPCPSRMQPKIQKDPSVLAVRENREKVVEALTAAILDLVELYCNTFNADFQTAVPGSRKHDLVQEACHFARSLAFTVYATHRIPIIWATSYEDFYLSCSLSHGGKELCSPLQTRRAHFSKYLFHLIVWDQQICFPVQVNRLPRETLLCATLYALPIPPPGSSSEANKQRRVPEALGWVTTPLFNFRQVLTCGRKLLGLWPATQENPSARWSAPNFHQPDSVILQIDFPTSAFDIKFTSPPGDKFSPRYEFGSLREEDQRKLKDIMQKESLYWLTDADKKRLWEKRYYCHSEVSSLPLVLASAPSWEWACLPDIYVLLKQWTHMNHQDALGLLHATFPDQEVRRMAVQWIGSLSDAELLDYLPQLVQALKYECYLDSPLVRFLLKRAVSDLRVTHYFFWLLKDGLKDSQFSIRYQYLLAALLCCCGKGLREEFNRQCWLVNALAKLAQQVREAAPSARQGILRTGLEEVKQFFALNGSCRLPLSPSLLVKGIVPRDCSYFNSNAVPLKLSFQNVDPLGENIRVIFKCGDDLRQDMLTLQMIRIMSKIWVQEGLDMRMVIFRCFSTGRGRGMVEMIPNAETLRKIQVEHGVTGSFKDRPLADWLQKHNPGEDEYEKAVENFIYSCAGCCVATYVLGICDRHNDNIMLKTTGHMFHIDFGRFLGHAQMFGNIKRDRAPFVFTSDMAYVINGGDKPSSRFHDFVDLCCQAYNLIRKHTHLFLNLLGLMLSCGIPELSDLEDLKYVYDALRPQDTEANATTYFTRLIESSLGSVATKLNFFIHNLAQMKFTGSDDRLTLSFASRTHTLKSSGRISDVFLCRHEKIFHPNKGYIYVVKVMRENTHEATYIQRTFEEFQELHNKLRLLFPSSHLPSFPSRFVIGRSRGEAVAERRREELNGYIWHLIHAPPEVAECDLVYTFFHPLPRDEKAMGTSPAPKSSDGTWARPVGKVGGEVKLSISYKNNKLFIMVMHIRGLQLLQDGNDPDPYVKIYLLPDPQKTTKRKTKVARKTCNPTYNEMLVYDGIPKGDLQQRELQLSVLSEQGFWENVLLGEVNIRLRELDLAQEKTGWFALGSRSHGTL
Chain of UniProt Q15208 (whole entry, looked up): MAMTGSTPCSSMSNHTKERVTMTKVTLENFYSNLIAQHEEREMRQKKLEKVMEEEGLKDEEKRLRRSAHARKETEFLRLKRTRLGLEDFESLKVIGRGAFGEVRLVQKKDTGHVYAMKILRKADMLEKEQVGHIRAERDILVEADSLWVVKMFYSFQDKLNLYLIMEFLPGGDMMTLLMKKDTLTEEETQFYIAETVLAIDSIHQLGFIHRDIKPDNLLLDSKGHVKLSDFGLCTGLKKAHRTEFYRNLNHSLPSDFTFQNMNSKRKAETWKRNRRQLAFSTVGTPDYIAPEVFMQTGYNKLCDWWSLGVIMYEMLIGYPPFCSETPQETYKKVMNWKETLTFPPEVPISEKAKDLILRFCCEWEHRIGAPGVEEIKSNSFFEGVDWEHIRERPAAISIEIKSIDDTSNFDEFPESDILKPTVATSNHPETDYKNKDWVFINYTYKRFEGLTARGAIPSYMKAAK

Study 1
SMILES: O=C1NC(c2ccccn2)Sc2ccccc21 (centres unmarked)
Observed: cell-free assay
Method: competition with immobilised ligand
Tested at: 1 µM
| target | remaining binding |
| --- | --- |
| MAP2K2 (Homo sapiens, UniProt P36507) | 75% |
| MAP3K14 (Homo sapiens, UniProt Q99558) | 92% |
| PAK2 (Homo sapiens, UniProt Q13177) | 100% |
| STK3 (Homo sapiens, UniProt Q13188) | 100% |
| KIT (Homo sapiens, UniProt P10721, A829P) | 98% |
| LATS2 (Homo sapiens, UniProt Q9NRM7) | 70% |
| SGK3 (Homo sapiens, UniProt Q96BR1) | 100% |
| TNK1 (Homo sapiens, UniProt Q13470) | 55% |
| PIK3C2B (Homo sapiens, UniProt O00750) | 86% |
| Tyrosine-protein kinase ABL1, non-phosphorylated (ABL1, Homo sapiens, UniProt P00519) | 69% |
| TNK2 (Homo sapiens, UniProt Q07912) | 100% |
| MAP2K7 (Homo sapiens, UniProt O14733) | 87% |
| PLK2 (Homo sapiens, UniProt Q9NYY3) | 97% |
| NEK10 (Homo sapiens, UniProt Q6ZWH5) | 100% |
| Ribosomal protein S6 kinase alpha-4, C-terminal kinase domain (RPS6KA4, Homo sapiens, UniProt O75676) | 74% |
| YES1 (Homo sapiens, UniProt P07947) | 100% |
| STK38 (Homo sapiens, UniProt Q15208) | 76% |
| PIKFYVE (Homo sapiens, UniProt Q9Y2I7) | 100% |

Study 2
Species: mouse
Medium: microsomes or S9
Tested at: 2 µM
Time: 0.5 h
| SMILES | remaining compound |
| --- | --- |
| CCOc1ccc(C2=NNC(c3ccncc3)=Nc3ccc(C(C)C)cc32)cc1 | 20.6% |
| c1ccc2c(-c3cn4c5ccccc5n(CCN5CCCCC5)c4n3)cccc2c1 | 1.35% |
| CCC(Oc1ccccc1)C(=O)Nc1cccc2c1CCCC2 (centres unmarked) | 0.536% |
| O=C(O)/C=C/c1ccc(NC(=O)Cc2c[nH]c3ccccc23)cc1 | 97.1% |

Study 3
SMILES: CC(C)C[C@@H]1NC(=O)[C@@H](N(C)C(=O)[C@H](CC2CCC2)NC(=O)[C@@H]2C[C@@H](F)CN2C(=O)C2(C(F)(F)F)CC(F)(F)C2)CCCCNC(=O)C2(CC2)NC(=O)[C@H](Cc2cc(Cl)ccc2Cl)N(C)C1=O
Method: PI flow cytometry
Time: 24 h
| cell line | setting | G1 phase cells |
| --- | --- | --- |
| HCC4006 | 20 nM | 53.1% and 55.2% and 51.9% |
| NCI-H82 | 2000 nM | 35.4% and 31% |
| HCC4006 | 2000 nM | 35.1% and 55.9% and 40.3% |

Study 4
Cell line: mouse MPNST tumor cells
Method: high-content immunofluorescence imaging
Item: nuclear SOX9
Tested at: 10 µM
Time: 12 h
Notes: mean of 2 replicates
Relative to: DMSO control
Reading: higher = more nuclear SOX9
| SMILES | nuclear SOX9 intensity |
| --- | --- |
| Cc1ccc(Sc2cncc3sc(C(N)=O)cc23)cc1 | 151 % of DMSO |
| CN1CCN(CC(=O)N2c3ccccc3C(=O)Nc3cccnc32)CC1 | 101 % of DMSO |
| NC[C@H]1O[C@H](O[C@H]2[C@H](O[C@@H]3O[C@H](CO)[C@@H](O)[C@H]3O)[C@@H](O)[C@H](N)C[C@@H]2N)[C@H](N)[C@@H](O)[C@@H]1O | 113 % of DMSO |
| COc1ccc(Cl)cc1[C@]1(F)C(=O)Nc2cc(C(F)(F)F)ccc21 | 115 % of DMSO |

Study 5
Method: PRP chromatography estimate
Medium: 1,9-decadiene/PBS
pH: 7.4
| Structure (SMILES) | logD |
| --- | --- |
| CC(C)C[C@@H]1NC(=O)[C@@H](C)NC(=O)[C@H](CCC(=O)N2CCCC2)NC(=O)[C@@H](C(C)C)NC(=O)[C@H](C)NC(=O)[C@H](CC(C)C)NC(=O)[C@@H](CC(C)C)NC1=O | -2.42 |
| CCC[C@H]1NC(=O)CSC[C@@H](C(=O)OCC)N(C)C(=O)[C@H](CC(C)C)NC(=O)[C@@H](C)N(C)C(=O)[C@@H](CC(C)C)NC(=O)[C@H](C)N(C)C(=O)[C@@H]2CCCN2C(=O)[C@H](CC(C)C)NC(=O)CN(C)C1=O | -0.258 |
| CC(C)C[C@@H]1NC(=O)[C@H](CC(C)C)NC(=O)[C@H](CC(C)C)NC(=O)[C@H](C(C)C)NC(=O)[C@@H](Cc2cscn2)NC(=O)[C@H](CCC(=O)N2CCCC2)NC(=O)[C@H](C)NC1=O | -2.25 |

Study 6
Organism: Sarcocystis neurona
Observed: parasite growth
Tested at: 10 µM
| Structure (SMILES) | inhibition |
| --- | --- |
| O=C(O)COCCN1CCN([C@H](c2ccccc2)c2ccc(Cl)cc2)CC1 | -29.3% |
| CN1CCN(CCCN2c3ccccc3Sc3ccc(Cl)cc32)CC1 | 12.7% |
| Cc1ccc(N(CC2=NCCN2)c2cccc(O)c2)cc1 | -19.4% |
| C[C@@H](O)[C@H]1C(=O)N2C(C(=O)O)=C(S[C@@H]3CN[C@H](C(=O)N(C)C)C3)[C@H](C)[C@H]12 | -20.1% |

Mixed results
Target: Diamine acetyltransferase 1 (Homo sapiens, UniProt P21673)
Mode: inhibitor
Tested at: 10 µM
Relative to: control
Residues used in one study (P21673 1-171): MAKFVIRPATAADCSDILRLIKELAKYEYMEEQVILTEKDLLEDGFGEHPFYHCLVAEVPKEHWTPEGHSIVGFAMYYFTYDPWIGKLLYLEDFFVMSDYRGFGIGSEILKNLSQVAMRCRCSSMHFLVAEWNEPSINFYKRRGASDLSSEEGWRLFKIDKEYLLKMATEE
| SMILES | remaining activity [%] |
| --- | --- |
| CC(C)=CCc1cc(-c2coc3cc(O)cc(O)c3c2=O)cc(O)c1O | 112 |
| CCCCCCCCCCCCCCCC(=O)OC | 101 |
